Published values of several laboratories.
Protocols differ between the studies behind these lines.
Tested at: 1 µM
Chain of UniProt P54762 (whole entry, looked up): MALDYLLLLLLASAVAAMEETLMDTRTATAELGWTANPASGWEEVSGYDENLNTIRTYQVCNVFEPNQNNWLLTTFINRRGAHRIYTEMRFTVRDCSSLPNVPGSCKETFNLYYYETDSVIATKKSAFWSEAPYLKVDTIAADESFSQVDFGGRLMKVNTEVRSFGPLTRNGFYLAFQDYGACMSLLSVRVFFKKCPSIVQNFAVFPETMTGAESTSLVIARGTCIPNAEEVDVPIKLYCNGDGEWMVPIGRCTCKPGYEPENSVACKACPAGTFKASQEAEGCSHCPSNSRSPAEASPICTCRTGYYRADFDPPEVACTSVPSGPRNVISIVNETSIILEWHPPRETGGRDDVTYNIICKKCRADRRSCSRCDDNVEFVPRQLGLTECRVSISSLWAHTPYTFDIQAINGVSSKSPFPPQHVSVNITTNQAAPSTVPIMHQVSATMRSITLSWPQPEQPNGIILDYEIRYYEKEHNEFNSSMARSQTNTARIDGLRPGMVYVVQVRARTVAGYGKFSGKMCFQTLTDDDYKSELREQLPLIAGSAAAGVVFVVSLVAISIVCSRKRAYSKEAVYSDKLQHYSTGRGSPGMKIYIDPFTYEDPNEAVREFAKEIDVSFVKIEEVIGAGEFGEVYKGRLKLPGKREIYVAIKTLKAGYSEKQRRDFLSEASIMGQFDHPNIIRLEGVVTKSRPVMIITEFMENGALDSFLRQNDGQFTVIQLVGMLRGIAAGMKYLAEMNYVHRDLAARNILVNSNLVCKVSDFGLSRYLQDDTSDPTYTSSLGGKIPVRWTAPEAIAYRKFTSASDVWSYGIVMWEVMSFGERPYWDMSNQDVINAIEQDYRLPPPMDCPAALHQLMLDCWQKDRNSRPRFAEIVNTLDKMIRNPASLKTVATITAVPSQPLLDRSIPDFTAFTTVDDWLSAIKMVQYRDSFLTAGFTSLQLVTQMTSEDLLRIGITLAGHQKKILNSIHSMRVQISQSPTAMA
Chain of UniProt P35626 (whole entry, looked up): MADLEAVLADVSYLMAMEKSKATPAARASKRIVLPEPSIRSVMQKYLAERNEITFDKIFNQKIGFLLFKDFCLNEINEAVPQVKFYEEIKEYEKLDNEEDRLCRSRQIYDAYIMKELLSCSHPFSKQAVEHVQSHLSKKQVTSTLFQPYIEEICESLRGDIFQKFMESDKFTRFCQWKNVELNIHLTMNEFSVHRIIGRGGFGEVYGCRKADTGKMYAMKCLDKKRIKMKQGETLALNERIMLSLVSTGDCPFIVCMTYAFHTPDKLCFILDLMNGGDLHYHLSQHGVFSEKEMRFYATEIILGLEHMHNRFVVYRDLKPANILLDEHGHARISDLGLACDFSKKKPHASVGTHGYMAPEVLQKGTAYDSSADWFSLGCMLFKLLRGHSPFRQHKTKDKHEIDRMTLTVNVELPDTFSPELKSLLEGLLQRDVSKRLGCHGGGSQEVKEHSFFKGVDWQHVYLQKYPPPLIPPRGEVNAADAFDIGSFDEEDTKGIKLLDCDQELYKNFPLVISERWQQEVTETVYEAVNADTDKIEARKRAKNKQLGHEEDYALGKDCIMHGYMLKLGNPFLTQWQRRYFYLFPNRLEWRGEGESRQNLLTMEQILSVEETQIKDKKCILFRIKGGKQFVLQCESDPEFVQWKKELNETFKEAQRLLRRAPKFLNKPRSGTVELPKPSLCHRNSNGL
Chain of UniProt P45984 (whole entry, looked up): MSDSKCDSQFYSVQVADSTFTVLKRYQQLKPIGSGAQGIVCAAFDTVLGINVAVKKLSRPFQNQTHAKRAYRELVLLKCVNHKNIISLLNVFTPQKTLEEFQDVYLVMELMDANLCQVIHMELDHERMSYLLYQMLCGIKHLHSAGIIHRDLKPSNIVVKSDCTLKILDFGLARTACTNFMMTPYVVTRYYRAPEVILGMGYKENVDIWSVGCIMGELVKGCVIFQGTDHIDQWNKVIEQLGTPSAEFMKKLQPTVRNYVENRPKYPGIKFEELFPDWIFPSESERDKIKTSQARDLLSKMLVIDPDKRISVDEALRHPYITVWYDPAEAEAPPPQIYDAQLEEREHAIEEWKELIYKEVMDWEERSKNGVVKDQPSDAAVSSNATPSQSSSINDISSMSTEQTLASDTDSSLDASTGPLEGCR
Chain of UniProt P11802 (whole entry, looked up): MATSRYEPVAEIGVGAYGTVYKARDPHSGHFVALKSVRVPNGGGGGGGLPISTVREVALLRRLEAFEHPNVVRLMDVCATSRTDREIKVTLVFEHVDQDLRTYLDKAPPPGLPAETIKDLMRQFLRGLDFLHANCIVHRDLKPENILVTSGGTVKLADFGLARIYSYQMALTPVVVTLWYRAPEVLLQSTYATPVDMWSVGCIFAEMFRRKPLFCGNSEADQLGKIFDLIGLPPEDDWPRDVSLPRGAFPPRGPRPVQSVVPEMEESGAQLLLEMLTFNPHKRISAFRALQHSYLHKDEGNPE

CNc1ncc2c(/C=C/C(=O)N3CCC(OC)CC3)nn(Cc3cccc(C(F)(F)F)c3)c2n1
remaining activity (Cyclin-dependent kinase 4, with cyclin D3 (CDK4, Homo sapiens, UniProt P11802); enzyme activity, inhibitor, radiometric): 86%

COc1cc(-c2cncc3c2CN(C)Cc2cc(N4CCNCC4)ccc2-3)cc(OC)c1OC
remaining activity (EPHB1 (Homo sapiens, UniProt P54762); enzyme activity, inhibitor): 101%

C=CC(=O)N1CCC(COCC(=O)N2CCN(c3nc(-c4cnc(N)nc4C(F)F)nc(N4CCOC[C@@H]4C)n3)CC2)CC1
remaining binding (GRK3 (Homo sapiens, UniProt P35626); binding, competition with immobilised ligand): 73%

Cc1cc([C@@H](C)Nc2ccccc2C(=O)O)c2nc(N3CCC(F)(F)CC3)c(C#N)c(=O)n2c1
remaining binding (MAPK9 (Homo sapiens, UniProt P45984); binding, competition with immobilised ligand): 96%
